Measured values from different studies.
Each line is one published result; not all experiments were run side by side. ± marks the error that the study gave.
Organism: HIV-1

Structure (SMILES)	test	system	setting	IC50
CC(=O)[O-].CN1CCCN2CCN(CCCN(Cc3ccccc3)CC2)CC1.F[P-](F)(F)(F)(F)F.[Co+2]	viral replication	MT-4, IIIB	5 d	> 100000 nM
CCCC(C)C1OC(=O)[C@H](C(C)C)N(C)C(=O)[C@H](CO)NC(=O)[C@H]([C@@H](C)C(N)=O)NC(=O)[C@@H]([C@H](C)OC(N)=O)NC(=O)[C@H](O)CNC(=O)/C=C/C=C/CC(O)C1C (stereo partly shown)	neutralization	SF162 Env pseudovirus		> 50 µg/mL
CC(=O)N[C@@H](Cc1ccc(O)cc1)C(=O)N[C@@H](CO)C(=O)N[C@@H](CO)C(=O)N[C@@H](Cc1c[nH]cn1)C(=O)N[C@@H](Cc1ccccc1)C(=O)N1CCC[C@H]1C(=O)N[C@@H](Cc1ccc(O)cc1)C(=O)N[C@@H](CO)C(=O)N[C@@H](CCC(N)=O)C(=O)N[C@@H](Cc1ccc(O)cc1)C(=O)N[C@@H](CCC(N)=O)C(=O)N[C@@H](Cc1ccccc1)C(=O)N[C@@H](Cc1c[nH]c2ccccc12)C(=O)N[C@@H](CCCCN)C(N)=O	viral entry	TZM-bl, YU2 (R5) pseudovirus	48 h	179000 nM
CC[C@H](C)[C@H](N)C(=O)N[C@@H](CO)C(=O)N[C@@H](Cc1ccccc1)C(=O)N[C@@H]1CSCc2ccc(cc2)-c2ccc(cc2)CSC[C@@H](C(=O)N[C@@H](CCC(=O)O)C(=O)N[C@@H](CO)C(=O)NCC(=O)N[C@@H](CO)C(N)=O)NC(=O)[C@H](Cc2ccc(O)cc2)NC(=O)[C@H](Cc2ccc(O)cc2)NC(=O)[C@H](CC(=O)O)NC(=O)[C@H](CC(C)C)NC(=O)[C@H](CC(C)C)NC(=O)[C@H](CCC(=O)O)NC1=O	viral entry, single-cycle pseudovirus	Env HIV-26191-2, subtype C		6300 ± 100 nM
CC(C)C[C@@H](N)C(=O)NCC(=O)N[C@H](C)C(=O)N[C@H](CO)C(=O)N[C@H](Cc1c[nH]c2ccccc12)C(=O)N[C@H](Cc1c[nH]cn1)C(=O)N[C@H](CCCNC(=N)N)C(=O)N1CCC[C@@H]1C(=O)N[C@H](CC(=O)O)C(=O)N[C@H](CCCCN)C(=O)N[C@H](CCCCN)C(=O)N[C@H](CCCNC(=N)N)C(=O)NCCCCCC(=O)N[C@@H](CCCCN)C(=O)N[C@@H](CCCNC(=N)N)C(=O)N[C@@H](CCCCN)C(=O)N[C@H](C(=O)N[C@@H](CC(N)=O)C(=O)N[C@@H](CC(N)=O)C(=O)N[C@@H](CC(N)=O)C(=O)N1CCC[C@H]1C(=O)N[C@@H](CCCNC(=N)N)C(=O)N[C@H](C(=O)N[C@@H](CS)C(N)=O)[C@@H](C)O)[C@@H](C)O	viral replication, refers to: p24 antigen	PBMC, NL4-3 (X4)	5 d	93 nM
COC(=O)c1ccccc1NC(=O)Cc1cn(OC)c2ccccc12	viral replication	HEK293T		3370 ± 450 nM
COc1ccc2c(c1)OCCCC=CCCCCN(CC(O)C(Cc1ccccc1)NC(=O)OC1COC3OCCC13)S2(=O)=O (mixture of isomers)	viral replication, p24 Gag production	PHA-stimulated PBMC, ERS104pre wild-type X4		7 ± 2 nM
CC(C)C[C@@H](N)C(=O)NCC(=O)N[C@H](C)C(=O)N[C@H](CO)C(=O)N[C@H](Cc1c[nH]c2ccccc12)C(=O)N[C@H](Cc1c[nH]cn1)C(=O)N[C@H](CCCNC(=N)N)C(=O)N1CCC[C@@H]1C(=O)N[C@H](CC(=O)O)C(=O)N[C@H](CCCCN)C(=O)N[C@H](CS)C(=O)N[C@H](CS)C(=O)N[C@H](CC(C)C)C(=O)NCC(=O)N[C@H](Cc1ccc(O)cc1)C(=O)N[C@H](CCC(N)=O)C(=O)N[C@H](CCCCN)C(=O)N[C@H](CCCNC(=N)N)C(=O)N1CCC[C@@H]1C(=O)N[C@H](CC(C)C)C(=O)N1CCC[C@@H]1C(N)=O	single-cycle infectivity, p24 immunoperoxidase focus	HeLa cells expressing CD4, HXBc2	48 h	24000 nM
CC(=O)N[C@@H](CS)C(=O)N[C@@H](CO)C(=O)N[C@@H](CO)C(=O)N[C@@H](Cc1ccc(O)cc1)C(=O)N[C@@H](Cc1ccc(O)cc1)C(=O)N1CCC[C@H]1C(=O)N[C@@H](Cc1c[nH]c2ccccc12)C(=O)N[C@@H](CO)C(=O)N[C@@H](CCC(N)=O)C(=O)N[C@@H](Cc1ccc(O)cc1)C(=O)N[C@@H](CCC(N)=O)C(=O)N[C@@H](Cc1c[nH]c2ccccc12)C(=O)N[C@@H](Cc1c[nH]c2ccccc12)C(=O)N[C@@H](CCCCN)C(N)=O	viral entry	TZM-bl, YU2 (R5) pseudovirus	48 h	2100 nM
CC(=O)[O-].F[P-](F)(F)(F)(F)F.[Co+2].c1ccc(CN2CCCN3CCN(CCCN(Cc4ccccc4)CC3)CC2)cc1	viral replication	MT-4, IIIB	5 d	1820 nM
CC(=O)N[C@@H](CC(C)C)C(=O)N[C@@H](CO)C(=O)N[C@@H](CC(=O)O)C(=O)N[C@@H](CO)C(=O)N1CCC[C@H]1C(=O)N[C@@H](CC(N)=O)C(=O)NCC(=O)N1CCC[C@H]1C(=O)N[C@@H](Cc1c[nH]c2ccccc12)C(=O)N[C@H](C(=O)N[C@@H](Cc1c[nH]c2ccccc12)C(=O)N[C@H](C(=O)N1CCC[C@H]1C(=O)N[C@@H](C)C(=O)N[C@@H](Cc1ccccc1)C(=O)N[C@@H](CO)C(=O)N[C@@H](CCC(N)=O)C(=O)N[C@@H](C)C(=O)N[C@H](C(=O)NCC(=O)O)C(C)C)C(C)C)C(C)C	viral replication, inhibitor, SEAP reporter	CEMx174 SEAP reporter, NL4-3	3 days	> 60000 nM
CC(=O)[O-].F[P-](F)(F)(F)(F)F.[Ni+2].c1ccc(CN2CCN3CCN(CC2)CCN(Cc2ccccc2)CC3)cc1	viral replication	MT-4, IIIB	5 d	590 nM
Cc1nc([C@H](NC(=O)c2ccc(-c3ccc(Cl)cc3)[nH]2)[C@H]2CCCCN2)sc1CO	cell-cell transmission, refers to: p24	H9 and Ghost X4/R5, IIIB CXCR4-tropic		2000 nM

For quick reference, copied from above:
Structure (SMILES)	test	system	setting	IC50
CC(=O)[O-].F[P-](F)(F)(F)(F)F.[Ni+2].c1ccc(CN2CCN3CCN(CC2)CCN(Cc2ccccc2)CC3)cc1	viral replication	MT-4, IIIB	5 d	590 nM
